# Published values from different studies.
# Protocols differ between the studies behind these lines. “And” joins repeats or separate records; there may be more than shown.
SMILES,organism,test,system,conditions,scale,endpoint,value
CC1(C)CC(=O)c2c(C(F)(F)F)nn(-c3ccc(C(N)=O)c(N[C@H]4CC[C@H](O)CC4)c3)c2C1,human alphaherpesvirus 1,,"K26 GFP, 3D skin equivalent, submerged",,reference: CC50 over IC50,selectivity index,22.8
CC[C@H](C)[C@H](NC(=O)[C@H](C)NC(=O)[C@H](CCCCN)NC(=O)[C@H](CC(C)C)NC(=O)[C@H](C)NC(=O)[C@@H](NC(=O)[C@H](Cc1c[nH]cn1)NC(=O)[C@H](CC(C)C)NC(=O)[C@@H](NC(=O)[C@@H](NC(=O)[C@H](CCCCN)NC(=O)[C@H](C)NC(=O)[C@H](C)NC(=O)[C@H](CO)NC(=O)[C@H](CCCCN)NC(=O)[C@H](Cc1ccccc1)NC(=O)[C@@H](NC(=O)[C@H](CCCCN)NC(=O)[C@H](CC(C)C)NC(=O)[C@H](Cc1ccccc1)NC(=O)[C@H](CO)NC(=O)[C@H](CCCCN)NC(=O)[C@H](Cc1c[nH]c2ccccc12)NC(=O)[C@H](CCCCN)NC(C)=O)[C@@H](C)O)[C@@H](C)O)C(C)C)[C@@H](C)O)C(=O)N[C@@H](CO)C(=O)N[C@@H](CO)C(N)=O,Pseudomonas aeruginosa,,ATCC 27853,,,MBC90,8 mg/L
CCCCCCCCCCCCCCNC(=O)CP(=O)(O)O,Bacillus cereus,,1056 strains,,,MIC90,3.13 mg/L
C[C@@H]1CN(c2cc(-c3nn(C)c4ccc(OC5(C)CC5)cc34)ncn2)C[C@H](C)O1,murine hepatitis virus,"viral replication, nanoluciferase reporter",DBT,"1 µM, 10 h",reference: DMSO vehicle,inhibition,20%
Nc1ccn([C@@H]2O[C@H](CO)[C@@H](O)C2(F)F)c(=O)n1,human alphaherpesvirus 1,,"K26 GFP, 3D skin equivalent, air-liquid",,reference: CC50 over IC50,selectivity index,> 62.5
CS(=O)(=O)CCCn1c(Cn2c(=O)n(CC(F)(F)F)c3ccncc32)cc2cc(Cl)ccc21,respiratory syncytial virus,RT-qPCR,"hospitalized infants 1-24 months, nasal swab","oral, 8 mg/kg daily, day 4, cohort 6-24 months",reference: baseline,LS mean viral load change,-0.58 log10 copies/mL
CN(C)C(=O)N1CC[C@H](N=C2Nc3cc(F)ccc3N(CC(F)F)c3ccc(Cl)cc32)C1,murine hepatitis virus,"viral replication, nanoluciferase reporter",DBT,1 µM,reference: DMSO vehicle,inhibition,10%
COc1cc2c(Nc3cccc(NC(=O)c4ccccc4)c3)ncnc2cc1OCCCN1CCOCC1,Aspergillus fumigatus,,,20 µM,reference: untreated,metabolic activity,≥ 80%
CC(C)[C@H](NC(=O)[C@H](CCCNC(=N)N)NC(=O)[C@H](Cc1c[nH]c2ccccc12)NC(=O)[C@H](CCCNC(=N)N)NC(=O)[C@H](Cc1c[nH]c2ccccc12)NC(=O)[C@H](Cc1c[nH]c2ccccc12)NC(=O)[C@H](Cc1c[nH]c2ccccc12)NC(=O)[C@H](CCCNC(=N)N)NC(=O)[C@H](Cc1c[nH]c2ccccc12)NC(=O)[C@@H](N)CCCNC(=N)N)C(N)=O,Candida albicans,broth microdilution,"SP3931, RPMI 1640-MOPS","48 h, 30 °C",,MIC,8 µM
COC(=O)C1=C(C)NC(C)=C(C(=O)OC(C)(C)CN(C)CCC(c2ccccc2)c2ccccc2)C1c1cccc([N+](=O)[O-])c1 (stereo not drawn),Aspergillus fumigatus,Alamar blue,,"7.8 µg/mL, 48 h, with: caspofungin 0.2 µg/mL",,metabolic activity,24.8% and 23.7%
C#Cc1ccc(C=NNC(=O)c2ccc(Br)cc2Br)c(O)c1,Aspergillus fumigatus,,293,"unit not given, with: voriconazole",lower = more synergy,FICI,2
CN1CCN(C(=O)C(C)(C)c2ccc(C(=O)Nc3cn4cc(-c5ccncc5)ccc4n3)cc2)CC1,murine hepatitis virus,"viral replication, nanoluciferase reporter",DBT,1 µM,reference: DMSO vehicle,inhibition,-4%
N=C(N)NCCC[C@H](NC(=O)[C@H](Cc1c[nH]c2ccccc12)NC(=O)[C@H](CCCNC(=N)N)NC(=O)[C@H](Cc1c[nH]c2ccccc12)NC(=O)[C@H](Cc1c[nH]c2ccccc12)NC(=O)[C@H](Cc1c[nH]c2ccccc12)NC(=O)[C@H](CCCNC(=N)N)NC(=O)[C@H](Cc1c[nH]c2ccccc12)NC(=O)[C@H](CCCNC(=N)N)NC(=O)CN)C(N)=O,Candida albicans,broth microdilution,"CGMCC 2.209, RPMI 1640-MOPS","48 h, 30 °C, with: NH4Cl 6 µM",,MIC,4 µM
CC1=C(C#N)[C@@H](c2ccc3[nH]nc(C)c3c2)C(C#N)=C(c2ccc(Cl)cc2)N1,murine hepatitis virus,"viral replication, nanoluciferase reporter",DBT,"1 µM, 10 h",reference: DMSO vehicle,inhibition,0%
CC(C)C[C@H](NC(=O)[C@H](CCCNC(=N)N)NC(=O)[C@H](Cc1c[nH]c2ccccc12)NC(=O)[C@H](CCCNC(=N)N)NC(=O)[C@H](Cc1c[nH]c2ccccc12)NC(=O)[C@H](Cc1c[nH]c2ccccc12)NC(=O)[C@H](Cc1c[nH]c2ccccc12)NC(=O)[C@H](CCCNC(=N)N)NC(=O)[C@H](Cc1c[nH]c2ccccc12)NC(=O)[C@H](CCCNC(=N)N)NC(=O)CN)C(N)=O,Candida albicans,broth microdilution,"56452, RPMI 1640-MOPS","48 h, 30 °C",,MIC,8 µM
Nc1ncnc2c([C@@H]3N[C@H](CO)[C@@H](O)[C@H]3O)c[nH]c12,Measles morbillivirus,viral replication,"Vero 76, Chicago",0.1 µM,,inhibition,0%
COc1ccc(S(=O)(=O)N(CCO)c2ccccc2CN(C)C/C=C/c2ccc(Cl)cc2)cc1,murine hepatitis virus,"viral replication, nanoluciferase reporter",DBT,1 µM,reference: DMSO vehicle,inhibition,20%
COc1ccc2c(ccc3oc([N+](=O)[O-])c(OC)c32)c1,Mycobacterium avium subsp. hominissuis,REMA,ATCC 25291,,,MIC90,> 32 mg/L
Nc1ncnc2c1ncn2[C@@H]1O[C@@H]2COP(=O)(O)O[C@H]3[C@@H](O)[C@H](n4cnc5c(=O)[nH]cnc54)O[C@@H]3COP(=O)(O)O[C@H]2[C@H]1O,West Nile virus,"RNA sequencing Reactome analysis, refers to: Cell Cycle Checkpoints (R-HSA-69620)",HFF-1,"concentration not given, upregulated pathways, with: West Nile virus infection",reference: WNV-infected without compound,fold enrichment,3.85
CC(C)[C@H](NC(=O)[C@H](CCCNC(=N)N)NC(=O)[C@H](Cc1c[nH]c2ccccc12)NC(=O)[C@H](CCCNC(=N)N)NC(=O)[C@H](Cc1c[nH]c2ccccc12)NC(=O)[C@H](Cc1c[nH]c2ccccc12)NC(=O)[C@H](Cc1c[nH]c2ccccc12)NC(=O)[C@H](CCCNC(=N)N)NC(=O)[C@H](Cc1c[nH]c2ccccc12)NC(=O)[C@H](CCCNC(=N)N)NC(=O)CN)C(N)=O,Candida albicans,broth microdilution,"CGMCC 2.209, RPMI 1640-MOPS","48 h, 30 °C",,MIC,8 µM
CN(c1ccnc(CNc2nc(Nc3ccc4c(c3)CC(=O)N4)ncc2C(F)(F)F)n1)S(C)(=O)=O,murine hepatitis virus,"viral replication, nanoluciferase reporter",DBT,1 µM,reference: DMSO vehicle,inhibition,23%
CCOC(=O)COc1ccc2ccc3oc([N+](=O)[O-])cc3c2c1,Enterobacter cloacae,REMA,,,,MIC90,> 32 mg/L
O=C(O)[C@@H]1[O][Sb](=[O])([O][Sb]2(=[O])[O][C@H]([C@H](O)CO)[C@H](O)[C@H](C(=O)O)[O]2)[O][C@H]([C@H](O)CO)[C@@H]1O.[Na+].[Na+].[Na+] (stereo partly drawn),Leishmania mexicana,"parasite growth, Giemsa stain count","C57BL/6 mouse bone marrow-derived macrophages, amastigotes",48 h,,IC50,2.7 µM
C=CC[C@@H]1c2ccc(OC)c(OC)c2CN2CCc3cc4c(cc3[C@H]12)OCO4,Staphylococcus aureus,,"P2rx7 A312V/A312V mice, skin wound infection","dose not given, day 6",reference: day 0,relative wound size,0.8 and 0.44 and 0.59 and 0.37

# Some of these lines once more:
SMILES,organism,test,system,conditions,scale,endpoint,value
CC(C)C[C@H](NC(=O)[C@H](CCCNC(=N)N)NC(=O)[C@H](Cc1c[nH]c2ccccc12)NC(=O)[C@H](CCCNC(=N)N)NC(=O)[C@H](Cc1c[nH]c2ccccc12)NC(=O)[C@H](Cc1c[nH]c2ccccc12)NC(=O)[C@H](Cc1c[nH]c2ccccc12)NC(=O)[C@H](CCCNC(=N)N)NC(=O)[C@H](Cc1c[nH]c2ccccc12)NC(=O)[C@H](CCCNC(=N)N)NC(=O)CN)C(N)=O,Candida albicans,broth microdilution,"56452, RPMI 1640-MOPS","48 h, 30 °C",,MIC,8 µM
O=C(O)[C@@H]1[O][Sb](=[O])([O][Sb]2(=[O])[O][C@H]([C@H](O)CO)[C@H](O)[C@H](C(=O)O)[O]2)[O][C@H]([C@H](O)CO)[C@@H]1O.[Na+].[Na+].[Na+] (stereo partly drawn),Leishmania mexicana,"parasite growth, Giemsa stain count","C57BL/6 mouse bone marrow-derived macrophages, amastigotes",48 h,,IC50,2.7 µM
